Published values of several laboratories.
A part holds a random share of what one study measured.

Block 1
Target: Sal-like protein 4, full length isoform B (SALL4, Homo sapiens, UniProt Q9UJQ4-2, residues 1-616)
Method: universal PBM
Form: double-stranded DNA, one strand shown
Matrix: in vitro
Tested at: not given
Setting: 8-mer, flanks averaged, mean of replicates
Direction: higher = stronger binding
Strand | E-score
CTACGCTA | 0.0247
CATTCTAG | 0.175
GGAGACGA | -0.0663
CCTGATAA | 0.075
ACTACGAG | -0.037
CGCGTTAG | -0.0676
CAATCACG | 0.136
CCTGAGTC | -0.279
ACTCCCCA | 0.0591
AGAGGGGA | -0.22
GTACCGGA | -0.21
AGTCCAAT | 0.0829
CCGCTTAA | -0.0343
ACACGCAA | 0.0644
CGTGGCAG | -0.197
GGCGCACA | -0.2
CTAAGAGC | -0.352
CTACCCAG | -0.153
ACCCGACT | -0.15
AAATAGTG | 0.221
TTCGTAAA | 0.298

Block 2
Target: RNA binding protein fox-1 homolog 2, RRM domain, GST-SBP tag (RBFOX2, Homo sapiens, UniProt O43251-10, residues 100-194)
Method: RNA Bind-n-Seq
Form: RNA
Matrix: in vitro
Tested at: 365 nM
Setting: natural RNA segment, single round, ends assumed
Baseline: no-protein control
Direction: higher = stronger binding
Shared flanks, not repeated: GGGAGUUCUACAGUCCGACGAUC … UGGAAUUCUCGGGUGCCAA
Target sequence (chain): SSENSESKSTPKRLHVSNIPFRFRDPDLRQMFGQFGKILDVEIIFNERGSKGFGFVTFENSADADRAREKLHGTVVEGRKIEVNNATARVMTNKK
Strand | RBNS enrichment (R)
CCAUCAGAUGUCUGGGCCUCCUCCAUCAGAUGUCUGGGCCUCCUCCAUCAGAUGCUUGGGCCUCCUCCAUCAGAUGCCUGGGCCUCCUCCAUCAGAUGUCUGGGCCUCCU | 0.253
CUCUUGGAGGCUUUCCCUGGAUUCCCUGAGUACAGUGUUAAAAGGCCUAACCACACAGCCACCUGCCCUAAGUGACAUUGUGUUUUUAGGUGUCACCGUCUUAGCCCUUU | 0.269
UGUUAGCCUUGGACUGAAGGGGUUUUAAGUUUUGAGGGGUAGGAAGAGAGUUACAGGAAUAGAGAACCUGUUUUUGAGACAUGUUGUCAUUUUGAUGAGAUAACCUUCAU | 0.937
CUUGUCCUCAGAAGGAACCUGCUCCUCUUGAGUGGCACCUGGGAUUUUCUCCUCCCAGUAAAUCUCAGUGAUGAUGUCAUGGUGAUUGAGUAGGAUGAGGCCUGUAUUAC | 0.411
GGUGCCCUCUGUAGGCCUUCACACAGGGAAGGAAGCCCUACCCUUUCAACUCCUGUUGGAGUGAGAGUUUCCUGUUCUGAUUCCACUGUGGCCAACCCAAUAAUUCUGUC | 0.219
AGAAAGUCCAACAGUGACACUCCCCCUGCUCCAAGGUGGGGACUUAAGUUUGUGAGGUACAAGAAUAUGUUUUCAUGAAAGUAACAUUGUUUAUCUAGCAAACGUGACAA | 0.307
CCAGCAUUAGGUAUUACUACCUGCCUCUGUCACUAAGAAUUUCUUCUCUUCCAUCUUCUGUGAGUAGGGUUUGGCUUUGUAUCCCUCCCUUGAUUGUUUCCAUACCACUC | 1.41
UAUGUAAAAACUGUCUGCAAGGACCGUCUGGCUUCAUUUCCCUGAGCACUCCCUACAUGGUAGGUUGUACCAGAGACCUAUGACCCCUGCCUUGUGGUAAACAGCAGGUG | 0.467
AAAAAAAAGUGAACUAAUAUAGCAUCAGGUAAGCAUUGUCACAGAGCCAAGCCUGGUAGGAUUUGUCUUUAAAAGUAGCAAUAGUAAGAGAGGCAAGUCAAGGGAAAGAG | 0.506
AAGGGCUCAGAAAACAAGCUGUGACAAGCAGAAACCAUGUCUAGGGGUGUGCAGCCCUUGACCCAAAGCUUAAGCCUUGUGCUCCCAGGGGAGCCAGGAAGUGACGUGUG | 0.332
GCCAUGCAAAUGCCAGCAGCUUAAUGGAUUUCAUGGAAUGAAAUACCGUGAUUAACUCAUAGCUACAUAUCAUUGCAUAAAUGGGAUUUAUCUUUUUUCUCACUUAUUUU | 0.456
CUGUAUGAAUGCAUGGCAUGAGACAACUAAUUUAAGAGACUUUUAUAAAUAAAGUUUGCAUUAACUAUACCCAUUUCCCAAAAUGCUCUGGGAGUUCUGGGCAACUAUUU | 18.8

Block 3
Target: RING finger protein unkempt homolog, zinc fingers 1-6, GST-SBP tag (UNK, Homo sapiens, UniProt Q9C0B0, residues 30-357)
Method: RNA Bind-n-Seq
Form: RNA
Matrix: in vitro
Tested at: not given
Setting: RNA with constant flanks, human and mouse sites, ends assumed
Baseline: input RNA pool
Direction: higher = stronger binding
Shared flanks, not repeated: GGGAGUUCUACAGUCCGACGAUC … CAACAGAGGAUUGAGCAUCA
Residues (chain): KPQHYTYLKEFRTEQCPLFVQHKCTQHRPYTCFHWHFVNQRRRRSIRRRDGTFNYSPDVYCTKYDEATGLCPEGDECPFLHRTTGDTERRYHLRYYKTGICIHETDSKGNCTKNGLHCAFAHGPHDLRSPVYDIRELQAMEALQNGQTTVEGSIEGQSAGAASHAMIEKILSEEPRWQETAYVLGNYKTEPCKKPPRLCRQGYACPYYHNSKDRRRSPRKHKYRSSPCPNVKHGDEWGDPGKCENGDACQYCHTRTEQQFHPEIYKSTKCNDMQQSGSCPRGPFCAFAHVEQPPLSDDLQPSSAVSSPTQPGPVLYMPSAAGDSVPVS
Strand | bound/input enrichment
GAUCUAAAAAUGGGAAUGAAGUUUGUCAGUGAUGAACAUUAUGAUGAAAACGAAGAUGACUUAGUUUCACAUGUAGAUGGUUCCGUAAUUUCCAGGAGGGAGUGGUAUGUUUAGCAACCA | 0.219 ratio
AAAAGACAGGCAUGGCUUUGGGAAGAAGACAAGAAUUUGAGAUCUGGCGUGAGGAAAUAUGGAGAGGGAAACUGGUCUAAAAUACUGUUGCAUUAUAAAUUCAACAACCGGACAAGUGUC | 0.436 ratio
AUGGGCAGAAAGGCACAGGUUGUGCUGUGCUUUAGCCUGCAUUUGUCUAUCCAAACUUGCUAGUUUUAUCGGCUUUUUACUUUUUUGUACUUUAUUUUUCCUAUAAAGUCCUUUUCAGAA | 0.763 ratio
ACACAGAUAAGGACACAGGAUGAAAGACGUGUGAGUUAAGUCUCAGCUUUCUGUAGAGAGAUAGACUAAAAAACAAAUUCAGGAAACCUAGAAAACAAUUAUUUCCCCUGGGCACAGACA | 30.6 ratio
AGCCUGGGCAUUUCUGCAUUUGUGCCAGCUAACACUACAAAAUAGACUUAAUUAGAGAAAUUUAGACCCAGAAUUGCAGCUUCAACAACACAAAACAGGAAAGCUAGAAGAGGUUGCUGU | 37.7 ratio
GUGAGCUUGCGGGGAAUUGGCAGUCCCAGCACAGAUGCCAGUGCCAGUGAUGUCCACGGCAAUUUCGCCUUCGAGGGCAUUGGAGAUGAGGAUCUGUAAUCUCCACUGCUUGGAUGUCUG | 0.087 ratio
UUCUGUCUGUAGGUAGGUUGUUGAUUCUAAGUAGCUUUCGUUUGUUCGUCUGUCUUAUGUCUUAGACCAGCUUUGUGGUGUUCUUGGCUCAUCUCAUAAUACUGUUGUUCAGUUUAUAUC | 0.364 ratio

Block 4
Target: Histone acetyltransferase KAT6A, winged helix 2, GST fusion (KAT6A, Homo sapiens, UniProt Q92794, residues 85-181)
Method: protein binding microarray
Form: double-stranded DNA, one strand shown
Matrix: in vitro
Tested at: not given
Setting: 8-mer, flanks averaged, mean of 2 arrays, mostly near background
Baseline: not given
Direction: higher = stronger binding
Residues (chain): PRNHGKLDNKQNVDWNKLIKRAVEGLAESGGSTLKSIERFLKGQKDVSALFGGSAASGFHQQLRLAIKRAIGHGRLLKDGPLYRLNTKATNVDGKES
Strand | E-score
GCGCATCA | 0.0268
ACATATTA | 0.117
ATCATAGG | -0.0404
AGGCCCAG | 0.0798
AAACGCCC | 0.00621
TCAAACAA | 0.163
CCGCTAGC | 0.0453
ATGTTAGG | -0.179
GGAGCAAA | 0.0762
CAGCCCAC | 0.13
AGAGACCC | -0.00722
CCGGTGCG | 0.114
CGACCATA | -0.0124
ATACGTTC | -0.127
CCCGAGCC | 0.134
AGGAATAG | -0.134
CGTTTAGA | -0.047
CCATCTTC | 0.142
ACGAATGG | 0.00418
AAATGGAT | -0.175
GAAACAAC | 0.0533
CTCGGCAC | -0.0768
GTCGTTCA | -0.00741
GCGCGGAC | 0.152
AAGATGCT | -0.0474

Block 5
Target: Prothrombin, mature alpha-thrombin (F2, Homo sapiens, UniProt P00734)
Method: aptamer microarray, sandwich
Form: DNA with 2'F-ANA
Matrix: in vitro
Tested at: 200 nM
Setting: whole 15-mer aptamer, many near background
Together with: Cy3 exosite-II aptamer, 400 nM
Direction: higher = stronger binding
Strand: GGTTGGTGTGGTTGG
Modification | mean fluorescence intensity [a.u.]
2'F-ANA at 1 2 4 6 7 8 9 12 14 15 | 63.8
2'F-ANA at 1 2 3 7 9 11 12 14 15 | 82.2
2'F-ANA at 1 2 3 4 8 10 11 12 13 14 15 | 51.4
2'F-ANA at 1 3 5 6 10 11 12 13 15 | 52.9
2'F-ANA at 5 7 10 11 12 14 15 | 52.4
2'F-ANA at 2 5 7 9 11 12 13 | 90.7
2'F-ANA at 3 4 5 6 7 11 12 15 | 133
2'F-ANA at 11 13 | 483
2'F-ANA at 1 3 4 5 6 8 12 13 14 15 | 50.2
2'F-ANA at 1 2 3 4 6 8 9 10 11 12 13 15 | 86.2
2'F-ANA at 1 3 4 5 6 7 8 10 12 | 53.2
2'F-ANA at 4 6 11 12 14 15 | 93
2'F-ANA at 3 10 12 14 15 | 428
2'F-ANA at 2 6 8 10 11 12 13 14 15 | 76
2'F-ANA at 5 8 10 11 12 13 | 47.7
2'F-ANA at 1 3 4 5 6 8 9 10 11 12 15 | 51.9
2'F-ANA at 1 2 3 4 5 8 10 | 46.1
2'F-ANA at 1 2 3 5 7 8 10 11 12 15 | 53.3
2'F-ANA at 1 2 4 6 7 8 9 10 11 13 | 54.2
2'F-ANA at 3 4 5 6 8 9 11 12 15 | 156
2'F-ANA at 1 6 7 8 9 11 12 14 | 73.4
2'F-ANA at 1 3 6 7 8 10 12 | 127

Excerpt of the above (block 5):
Modification | mean fluorescence intensity [a.u.]
2'F-ANA at 1 3 4 5 6 8 12 13 14 15 | 50.2
2'F-ANA at 1 2 3 4 6 8 9 10 11 12 13 15 | 86.2
2'F-ANA at 1 3 4 5 6 7 8 10 12 | 53.2
2'F-ANA at 4 6 11 12 14 15 | 93
2'F-ANA at 3 10 12 14 15 | 428
2'F-ANA at 2 6 8 10 11 12 13 14 15 | 76
2'F-ANA at 5 8 10 11 12 13 | 47.7
2'F-ANA at 1 3 4 5 6 8 9 10 11 12 15 | 51.9
2'F-ANA at 1 2 3 4 5 8 10 | 46.1
